Results pooled from the literature.
Compare with care: the assays were run in different laboratories.

| SMILES | organism | assay | test system | conditions | quantity | result |
| --- | --- | --- | --- | --- | --- | --- |
| CC[C@H](C)[C@H](NC(=O)CN)C(=O)NCC(=O)N[C@@H](C)C(=O)N[C@H](C(=O)N[C@@H](CC(C)C)C(=O)N[C@@H](CCCCN)C(=O)N[C@H](C(=O)N[C@@H](CC(C)C)C(=O)N[C@H](C(=O)N[C@H](C(=O)NCC(=O)N[C@@H](CC(C)C)C(=O)N1CCC[C@H]1C(=O)N[C@@H](C)C(=O)N[C@@H](CC(C)C)C(=O)N[C@H](C(=O)N[C@@H](CO)C(=O)N[C@@H](Cc1c[nH]c2ccccc12)C(=O)N[C@H](C(=O)N[C@@H](CCCCN)C(=O)N[C@@H](CCCNC(=N)N)C(=O)N[C@@H](CCCCN)C(=O)N[C@@H](CCCNC(=N)N)C(=O)N[C@@H](CCC(N)=O)C(=O)N[C@@H](CCC(N)=O)C(N)=O)[C@@H](C)CC)[C@@H](C)CC)[C@@H](C)O)[C@@H](C)O)C(C)C)C(C)C | Candida albicans | broth microdilution | fluconazole-resistant 56214, RPMI-1640 | 48 h, 30 °C | MIC | 2 µM |
| C#Cc1ccc(O)c(C=NNC(=O)c2ccc(C3(C(F)(F)F)N=N3)cc2)c1 | Candida albicans | – | A39 | 48 h | MIC | 1 µg/mL |
| COC(=O)[C@@H]1[C@H]2C[C@H]3c4[nH]c5ccccc5c4CCN3C[C@@H]2CC[C@@H]1O | Plasmodium falciparum | – | GB4 | – | IC50 | 3.16 µM |
| CC(=O)N1CCN(c2ccc(OCC3COC(Cn4ccnc4)(c4ccc(Cl)cc4Cl)O3)cc2)CC1 (stereo not drawn) | Candida albicans | – | 2.209 | before resistance passaging | MIC | 4 µM |
| CC(C)C[C@H](NC(=O)[C@H](CCCNC(=N)N)NC(=O)[C@H](Cc1c[nH]c2ccccc12)NC(=O)[C@H](CCCNC(=N)N)NC(=O)[C@H](Cc1c[nH]c2ccccc12)NC(=O)[C@H](Cc1c[nH]c2ccccc12)NC(=O)[C@H](Cc1c[nH]c2ccccc12)NC(=O)[C@H](CCCNC(=N)N)NC(=O)[C@H](Cc1c[nH]c2ccccc12)NC(=O)[C@H](CCCNC(=N)N)NC(=O)CN)C(N)=O | Candida albicans | broth microdilution | SP3903, RPMI 1640-MOPS | 48 h, 30 °C | MIC | 32 µM |
| C[C@@H](O)[C@H](NC(=O)[C@H](Cc1ccccc1)NC(=O)[C@H](Cc1c[nH]c2ccccc12)NC(=O)[C@H](Cc1ccccc1)NC(=O)[C@@H](NC(=O)[C@H](Cc1ccccc1)NC(=O)[C@H](CCCNC(=N)N)NC(=O)[C@@H](N)CCCNC(=N)N)[C@@H](C)O)C(=O)N[C@@H](Cc1ccccc1)C(=O)N[C@@H](CCCNC(=N)N)C(=O)N[C@@H](CCCNC(=N)N)C(N)=O | Candida albicans | – | CGMCC 2.209, RPMI 1640 MOPS-buffered | 48 h, 37 °C, tested up to 128 µM | MIC | 2 µM |
| C[C@H](NC(=O)[C@H](CCCNC(=N)N)NC(=O)[C@H](Cc1c[nH]c2ccccc12)NC(=O)[C@H](CCCNC(=N)N)NC(=O)[C@H](Cc1c[nH]c2ccccc12)NC(=O)[C@H](Cc1c[nH]c2ccccc12)NC(=O)[C@H](Cc1c[nH]c2ccccc12)NC(=O)[C@H](CCCNC(=N)N)NC(=O)[C@H](Cc1c[nH]c2ccccc12)NC(=O)[C@@H](N)CCCNC(=N)N)C(N)=O | Candida albicans | – | CGMCC 2.209 | no added salts | MIC | 8 µM |
| CCCCCCC[C@@H]1CC(=O)N[C@H](CC(C)C)C(=O)N[C@@H](CO)C(=O)N[C@@H]([C@@H](C)O)C(=O)N[C@H](Cc2ccccc2)C(=O)N[C@@H](C(C)C)C(=O)O1 | Candida albicans | fungal growth, XTT | SC5314 | – | MIC | > 100 µM |
| C[C@H](NC(=O)[C@H](CCCNC(=N)N)NC(=O)[C@H](Cc1c[nH]c2ccccc12)NC(=O)[C@H](CCCNC(=N)N)NC(=O)[C@H](Cc1c[nH]c2ccccc12)NC(=O)[C@H](Cc1c[nH]c2ccccc12)NC(=O)[C@H](Cc1c[nH]c2ccccc12)NC(=O)[C@H](CCCNC(=N)N)NC(=O)[C@H](Cc1c[nH]c2ccccc12)NC(=O)[C@H](CCCNC(=N)N)NC(=O)CN)C(N)=O | Candida albicans | broth microdilution | 17546, RPMI 1640-MOPS | 48 h, 30 °C | MIC | 8 µM |
| OC(Cn1cncn1)(Cn1cncn1)c1ccc(F)cc1F | Candida albicans | – | 2.209 | after 30 generations serial passaging | MIC | 512 µM |
| CNCCC(Oc1ccccc1OC)c1ccccc1 (stereo not drawn) | Plasmodium falciparum | – | 3D7 | – | IC50 | 12.6 µM |
| N=C(N)NCCC[C@H](NC(=O)[C@H](Cc1c[nH]c2ccccc12)NC(=O)[C@H](CCCNC(=N)N)NC(=O)[C@H](Cc1c[nH]c2ccccc12)NC(=O)[C@H](Cc1c[nH]c2ccccc12)NC(=O)[C@H](Cc1c[nH]c2ccccc12)NC(=O)[C@H](CCCNC(=N)N)NC(=O)[C@H](Cc1c[nH]c2ccccc12)NC(=O)[C@@H](N)CCCNC(=N)N)C(=O)N[C@@H](Cc1c[nH]c2ccccc12)C(N)=O | Candida albicans | broth microdilution | 17546, RPMI 1640-MOPS | 48 h, 30 °C | MIC | 8 µM |
| CC[C@H](C)[C@H](NC(=O)CN)C(=O)N[C@@H](C)C(=O)N[C@@H](CCCCN)C(=O)N[C@@H](C)C(=O)N[C@H](C(=O)N[C@@H](CCCCN)C(=O)N[C@@H](CCCCN)C(=O)N[C@H](C(=O)N[C@@H](C)C(=O)N[C@@H](CCCCN)C(=O)N[C@@H](C)C(=O)N[C@@H](CC(C)C)C(=O)NCC(N)=O)[C@@H](C)CC)[C@@H](C)CC | Candida albicans | – | ATCC 90029, RPMI MOPS | 24 h, pH 7.0, 33 °C | MIC | 64 µg/mL |
| CC(C)C[C@H](NC(=O)[C@H](CCCCN)NC(=O)[C@H](CO)NC(=O)[C@H](CC(C)C)NC(=O)[C@H](CC(C)C)NC(=O)CNC(=O)[C@H](CC(C)C)NC(=O)[C@H](CCCCN)NC(=O)[C@H](CC(C)C)NC(=O)[C@H](CC(C)C)NC(=O)[C@H](CC(C)C)NC(=O)CNC(=O)[C@H](CO)NC(=O)[C@H](Cc1c[nH]c2ccccc12)NC(=O)[C@@H](N)CCCCN)C(N)=O | Candida albicans | broth microdilution | ATCC 10231 | 44 h, 37 °C | MIC | > 100 µM |
| CC[C@H](C)[C@H](NC(=O)[C@H](CCCNC(=N)N)NC(=O)[C@@H](NC(=O)[C@H](C)NC(=O)[C@@H](N)CCCNC(=N)N)C(C)C)C(=O)N[C@@H](Cc1c[nH]c2ccccc12)C(=O)N[C@@H](Cc1c[nH]c2ccccc12)C(N)=O | Candida albicans | – | – | – | MIC | 32 µg/mL |

Repeated from above:
| SMILES | organism | assay | test system | conditions | quantity | result |
| --- | --- | --- | --- | --- | --- | --- |
| CCCCCCC[C@@H]1CC(=O)N[C@H](CC(C)C)C(=O)N[C@@H](CO)C(=O)N[C@@H]([C@@H](C)O)C(=O)N[C@H](Cc2ccccc2)C(=O)N[C@@H](C(C)C)C(=O)O1 | Candida albicans | fungal growth, XTT | SC5314 | – | MIC | > 100 µM |
